Measured values from different studies.
Every numbered part comes from another study and shows a few of its results, in no order.
Sequence of UniProt Q01959 (whole entry, looked up): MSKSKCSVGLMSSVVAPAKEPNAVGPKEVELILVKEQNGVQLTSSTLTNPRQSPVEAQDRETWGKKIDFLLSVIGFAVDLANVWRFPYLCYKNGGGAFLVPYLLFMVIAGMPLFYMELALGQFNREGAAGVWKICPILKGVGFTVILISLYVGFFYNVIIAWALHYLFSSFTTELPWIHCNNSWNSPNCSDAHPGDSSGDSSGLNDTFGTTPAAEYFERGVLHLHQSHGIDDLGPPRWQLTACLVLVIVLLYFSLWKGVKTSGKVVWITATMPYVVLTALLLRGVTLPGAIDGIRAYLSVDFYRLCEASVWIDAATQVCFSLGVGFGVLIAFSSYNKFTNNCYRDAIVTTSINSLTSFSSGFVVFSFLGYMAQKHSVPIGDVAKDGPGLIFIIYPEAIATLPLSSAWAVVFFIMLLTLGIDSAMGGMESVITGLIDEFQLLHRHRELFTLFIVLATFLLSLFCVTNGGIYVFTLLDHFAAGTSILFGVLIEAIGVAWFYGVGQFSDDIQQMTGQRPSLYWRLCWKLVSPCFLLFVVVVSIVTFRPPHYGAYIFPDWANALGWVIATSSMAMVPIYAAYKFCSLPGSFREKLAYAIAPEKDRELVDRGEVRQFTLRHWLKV
Sequence of UniProt P23975 (whole entry, looked up): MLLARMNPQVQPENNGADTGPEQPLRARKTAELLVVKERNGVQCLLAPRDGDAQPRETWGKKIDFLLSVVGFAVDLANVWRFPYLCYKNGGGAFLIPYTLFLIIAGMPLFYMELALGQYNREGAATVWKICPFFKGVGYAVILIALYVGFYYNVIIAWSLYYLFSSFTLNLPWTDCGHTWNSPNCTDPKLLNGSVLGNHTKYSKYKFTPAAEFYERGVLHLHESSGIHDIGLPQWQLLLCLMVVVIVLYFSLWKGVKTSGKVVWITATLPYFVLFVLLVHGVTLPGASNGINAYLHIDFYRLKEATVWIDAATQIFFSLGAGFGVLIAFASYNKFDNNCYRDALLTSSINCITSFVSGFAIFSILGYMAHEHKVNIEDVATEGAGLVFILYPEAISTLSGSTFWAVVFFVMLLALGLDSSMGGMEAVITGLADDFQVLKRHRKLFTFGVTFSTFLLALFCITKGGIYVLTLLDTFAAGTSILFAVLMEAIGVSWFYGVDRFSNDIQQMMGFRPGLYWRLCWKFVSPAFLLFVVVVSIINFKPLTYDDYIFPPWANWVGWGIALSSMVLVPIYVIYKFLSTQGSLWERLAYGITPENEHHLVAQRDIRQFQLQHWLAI
Sequence of UniProt P31645 (whole entry, looked up): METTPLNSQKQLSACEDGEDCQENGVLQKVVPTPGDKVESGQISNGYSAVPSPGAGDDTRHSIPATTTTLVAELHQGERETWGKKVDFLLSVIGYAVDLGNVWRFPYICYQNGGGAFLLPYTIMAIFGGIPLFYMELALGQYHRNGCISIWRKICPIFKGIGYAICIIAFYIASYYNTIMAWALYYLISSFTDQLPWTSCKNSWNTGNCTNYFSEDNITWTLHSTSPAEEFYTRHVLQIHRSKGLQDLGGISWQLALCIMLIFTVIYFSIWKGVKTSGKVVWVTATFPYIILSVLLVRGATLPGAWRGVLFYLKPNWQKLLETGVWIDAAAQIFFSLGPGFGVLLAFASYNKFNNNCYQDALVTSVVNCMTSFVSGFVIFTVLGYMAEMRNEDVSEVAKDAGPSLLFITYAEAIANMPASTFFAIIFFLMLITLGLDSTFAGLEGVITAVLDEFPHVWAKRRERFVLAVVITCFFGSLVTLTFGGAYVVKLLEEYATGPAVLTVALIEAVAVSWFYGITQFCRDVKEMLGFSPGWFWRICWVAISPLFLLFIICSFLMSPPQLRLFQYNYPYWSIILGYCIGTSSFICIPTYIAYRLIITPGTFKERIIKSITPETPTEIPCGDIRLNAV

Sample 1 — cell line: HaCaT; concentration: 100 µM; time: 18 h
SMILES	viability
C[C@@H]1CC[C@@]2(OC1)O[C@H]1[C@@H](O)[C@H]3[C@@H]4CC[C@H]5C[C@@H](O[C@@H]6O[C@H](CO)[C@H](O[C@@H]7O[C@H](CO)[C@@H](O)[C@H](O[C@@H]8OC[C@@H](O)[C@H](O)[C@H]8O)[C@H]7O[C@@H]7O[C@H](CO)[C@H](O)[C@H](O[C@@H]8O[C@H](CO)[C@@H](O)[C@H](O)[C@H]8O)[C@H]7O)[C@H](O)[C@H]6O)[C@H](O)C[C@]5(C)[C@H]4CC[C@]3(C)[C@H]1[C@@H]2C	15.4%
ClCC1C(CCl)[C@@]2(Cl)C(Cl)=C(Cl)[C@]1(Cl)C2(Cl)Cl (stereo partly drawn)	20.1%
CC(C)N(CCNC(=O)CN1CCCC1=O)C(C)C	113%
N=C(N)NN	115%
C[C@]12C=CC(=O)C=C1CC[C@@H]1[C@@H]2CC[C@@]2(C)[C@H]1CC[C@]2(C)O	92.3%
CCOC(=O)CC(SP(=S)(OC)OC)C(=O)OCC (stereo not drawn)	43.8%
CNCC(O)c1ccc(O)cc1 (stereo not drawn)	108%
C[C@@H]1CC[C@H]2[C@@H](C)C(=O)O[C@@H]3O[C@@]4(C)CC[C@@H]1[C@]32OO4	115%
NCC(CC(=O)O)c1ccc(Cl)cc1 (stereo not drawn)	96.3%
CC[C@@]1(O)C(=O)OCc2c1cc1n(c2=O)Cc2cc3cc(O)ccc3nc2-1	62%

Sample 2 — observed: ligand displacement; concentration: 10 µM
SMILES: C[C@@H](c1cccc(C#N)c1)n1cc(Cl)cc(C(N)=O)c1=N
target	inhibition [%]
Sodium-dependent noradrenaline transporter (SLC6A2, Homo sapiens, UniProt P23975)	-10.8
Sodium-dependent dopamine transporter (SLC6A3, Homo sapiens, UniProt Q01959)	-40.3
Sodium-dependent serotonin transporter (SLC6A4, Homo sapiens, UniProt P31645)	14.8

Sample 3 — organism: Plasmodium berghei; action: inhibitor; cells: Huh-7; strain: GFP-expressing sporozoites, liver stage; concentration: 10 µM; time: 24 h; relative to: untreated control
Compound	infection rate [%]
C=CC[C@]1(O)CC[C@H]2[C@@H]3CCC4=CC(=O)CCC4=C3C=C[C@@]21C	71.5
COP(=O)(OC)OC=C(Cl)Cl	84.3
Cc1cc(O)ccc1Cl	116
CC(NC(C)(C)C)C(=O)c1cccc(Cl)c1 (stereo not drawn)	92.7
NCC(CC(=O)O)c1ccc(Cl)cc1 (stereo not drawn)	92.2
CC(C)N(CCC(C(N)=O)(c1ccccc1)c1ccccn1)C(C)C (stereo not drawn)	111
Cc1cccc(C)c1NC1=NCCCS1	4.66

Sample 4 — observed: RNA clamping; technique: fluorescence polarization; concentration: concentration not given; with: FAM-labelled poly r(AG)8 RNA
Target: Eukaryotic initiation factor 4A-III (Homo sapiens, UniProt P38919)
Sequence of UniProt P38919 (whole entry, looked up): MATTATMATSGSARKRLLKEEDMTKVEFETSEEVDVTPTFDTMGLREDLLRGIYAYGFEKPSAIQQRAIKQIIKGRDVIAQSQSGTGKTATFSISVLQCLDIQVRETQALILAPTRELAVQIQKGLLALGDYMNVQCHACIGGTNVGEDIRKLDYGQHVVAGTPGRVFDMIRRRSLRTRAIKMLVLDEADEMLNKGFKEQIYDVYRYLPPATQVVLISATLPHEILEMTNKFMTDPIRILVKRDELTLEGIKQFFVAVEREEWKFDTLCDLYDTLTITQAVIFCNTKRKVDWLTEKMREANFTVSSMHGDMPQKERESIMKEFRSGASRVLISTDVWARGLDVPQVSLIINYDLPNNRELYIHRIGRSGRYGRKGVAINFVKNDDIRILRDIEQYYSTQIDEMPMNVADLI
SMILES	fluorescence polarization change [mP]
COc1cc(F)cc2c1[C@]1(O)[C@H](O)[C@H](/C(N)=N/O)[C@@H](c3ccccc3)[C@]1(c1ccc(Br)cc1)O2	37.7
CCOC(=O)COc1nc(-c2ccccc2)nc2c1[C@@H](c1ccccc1)[C@]1(c3ccc(OC)cc3)Oc3cc(OC)cc(OC)c3[C@]21O	8.2
COc1ccc([C@@]23Oc4cc(OC)cc(OC)c4[C@@]24NC(C)=NC4=C(C=O)[C@H]3c2ccccc2)cc1	20.8
COC(=O)[C@H]1[C@@H](O)[C@@]2(O)c3c(OC)cc(OC)cc3O[C@@]2(c2ccc(Br)cc2)[C@@H]1c1ccccc1	29.4
COC(=O)[C@@H]1[C@@H](c2ccccc2)[C@]2(c3ccc(OC)cc3)Oc3cc(OC)cc(OC)c3[C@@]23OC(c2ccc(F)cc2)=N[C@@]13O	21.5
COC(=O)[C@H]1[C@H](c2ccccc2)[C@]2(c3ccc(OC)cc3)Oc3cc(OC)cc(OC)c3[C@@]23OC(c2ccccc2)=N[C@@]13O	-1
COc1ccc([C@@]23Oc4cc(OC)cc(OC)c4[C@]2(O)c2nc4n(c(=O)c2[C@@H]3c2ccccc2)CCC4)cc1	7.7
COC(=O)[C@H]1C(=O)[C@@]2(O)c3c(OC)cc(OC)cc3O[C@@]2(c2ccc(OC)cc2)[C@@H]1c1ccccc1	25.6
COc1ccc([C@@]23Oc4cc(OC)cc(OC)c4[C@]2(O)c2nc(-c4ccc(Cl)cc4)[nH]c(=O)c2[C@H]3c2ccccc2)cc1	8.5
COc1cc(OC)c2c(c1)O[C@@]1(c3ccc(Br)cc3)[C@H](c3ccccc3)C[C@@H](O)[C@@]21O	23.8
COc1ccc([C@@]23Oc4cc(OC)cc(OC)c4[C@]2(O)c2nc(-c4ccc(Cl)nc4)[nH]c(=O)c2[C@H]3c2ccccc2)cc1	24.4
COCc1nc2c(c(=O)[nH]1)[C@@H](c1ccccc1)[C@]1(c3ccc(OC)cc3)Oc3cc(OC)cc(OC)c3[C@]21O	35.1
COC(=O)[C@@H]1[C@@H](c2ccccc2)[C@]2(c3ccc(OC)cc3)Oc3cc(OC)cc(OC)c3[C@@]23OC(C)=N[C@@]13O	26.1

Repeated from above (sample 4):
SMILES	fluorescence polarization change [mP]
COc1ccc([C@@]23Oc4cc(OC)cc(OC)c4[C@]2(O)c2nc(-c4ccc(Cl)nc4)[nH]c(=O)c2[C@H]3c2ccccc2)cc1	24.4
COCc1nc2c(c(=O)[nH]1)[C@@H](c1ccccc1)[C@]1(c3ccc(OC)cc3)Oc3cc(OC)cc(OC)c3[C@]21O	35.1
COC(=O)[C@@H]1[C@@H](c2ccccc2)[C@]2(c3ccc(OC)cc3)Oc3cc(OC)cc(OC)c3[C@@]23OC(C)=N[C@@]13O	26.1
